{"data": "Measurements of several laboratories", "note": "Lines come from different studies, so protocols differ."}
{"Compound": "CC(C)n1ncc2c(C(=O)NCC3(C)CNC3)cc(C3CC3)nc21", "target or system": "Enterovirus A71", "assay": "viral replication", "test system": "Tainan/4643/1998", "conditions": "9000 nM", "quantity": "plaque reduction", "value": "100%"}
{"Compound": "CCn1c(=O)c(-c2cc[nH]n2)cc2c(C)nc(N)nc21", "target or system": "Enterovirus A71", "assay": "histopathology", "test system": "EV71-infected suckling mice, spleen", "conditions": "0.25 mg/kg", "scale": "direction not given", "quantity": "total pathology score", "value": 1}
{"Compound": "O=C(Nc1n[nH]c2nc(-c3ccc(O)cc3)c(Br)cc12)C1CC1", "target or system": "Trypanosoma brucei", "conditions": "unit not given", "scale": "baseline: pEC50 T. brucei minus pTC50 HepG2", "quantity": "selectivity", "value": 1.8}
{"Compound": "NS(=O)(=O)c1cccc(-c2ccc(C3CCCCC3)cc2)c1", "assay": "liver microsome stability", "test system": "human liver microsomes", "conditions": "1 µM, without NADPH", "quantity": "hepatic clearance", "value": "3.9 mL/min/kg"}
{"Compound": "CCc1ccc(NC(=O)C2CCC(CNS(=O)(=O)c3ccc4c(c3)CC(C)N4C(C)=O)CC2)cc1 (centres unmarked)", "target or system": "Mus musculus", "assay": "gene silencing, high-content imaging", "test system": "LDR reporter GFP cells", "conditions": "retest run 1", "quantity": "maximal activity", "value": "29%"}
{"Compound": "CN1CCN(CCCNc2nc3ccc(Oc4ccc(NC(=O)Nc5cc(C(F)(F)F)ccc5F)cc4)cc3[nH]2)CC1", "target or system": "Trypanosoma brucei", "conditions": "unit not given", "scale": "baseline: pEC50 T. brucei minus pTC50 HepG2", "quantity": "selectivity", "value": 1}
{"Compound": "CCOc1ccc(NC(=O)c2nc(S(=O)(=O)Cc3ccccc3F)ncc2Cl)cc1", "target or system": "Mus musculus", "assay": "gene silencing, high-content imaging", "test system": "LDR reporter GFP cells", "conditions": "retest run 1", "quantity": "maximal activity", "value": "14%"}
{"Compound": "NS(=O)(=O)c1ccc(N/N=C2\\C(=O)Nc3ccc(Cl)cc32)cc1", "target or system": "Trypanosoma brucei", "conditions": "unit not given", "scale": "baseline: pEC50 T. brucei minus pTC50 HepG2", "quantity": "selectivity", "value": 1.1}
{"Compound": "CN[C@H](CC(C)C)C(=O)N[C@H]1C(=O)N[C@@H](CC(N)=O)C(=O)N[C@H]2C(=O)N[C@H]3C(=O)N[C@H](C(=O)N[C@H](C(=O)O)c4cc(O)cc(O)c4-c4cc3ccc4O)[C@H](O)c3ccc(c(Cl)c3)Oc3cc2cc(c3O[C@@H]2O[C@H](CO)[C@@H](O)[C@H](O)[C@H]2O[C@H]2C[C@](C)(N)[C@H](O)[C@H](C)O2)Oc2ccc(cc2Cl)[C@H]1O", "target or system": "Streptococcus pneumoniae", "assay": "broth microdilution", "test system": "penicillin-resistant isolates", "quantity": "MIC90", "value": "1 µg/mL"}
{"Compound": "CN1CCN(C(=O)c2ccc([C@H]3[C@@H](F)[C@@H](F)C[C@@H](F)[C@H]3F)cc2)CC1", "assay": "liver microsome stability", "test system": "dog liver microsomes", "conditions": "1 µM", "quantity": "hepatic clearance", "value": "18 mL/min/kg"}
{"Compound": "CC(=O)N[C@@H](CSC(=O)[C@]1([C@@H](O)C(C)C)NC(=O)[C@H](C)[C@@H]1O)C(=O)O", "target or system": "Mus musculus", "assay": "gene silencing, high-content imaging", "test system": "LDR reporter GFP cells", "conditions": "30 h, retest run 2", "quantity": "Emax", "value": "72%"}
{"note": "A few entries again:"}
{"Compound": "CCn1c(=O)c(-c2cc[nH]n2)cc2c(C)nc(N)nc21", "target or system": "Enterovirus A71", "assay": "histopathology", "test system": "EV71-infected suckling mice, spleen", "conditions": "0.25 mg/kg", "scale": "direction not given", "quantity": "total pathology score", "value": 1}
